Measured values pooled from the literature.
Each numbered part is a random draw from the data of one study; scales do not carry over between parts. Changes are numbered by the printed parent chain.

Sample 1 — method: RNA Bind-n-Seq; form: RNA; sample: in vitro; concentration: not given; reference: input RNA pool; reading: higher = stronger binding
Target: RING finger protein unkempt homolog, zinc fingers 1-6, GST-SBP tag (UNK, Homo sapiens, UniProt Q9C0B0, residues 30-357)
UniProt Q9C0B0, sequence (30-357, looked up): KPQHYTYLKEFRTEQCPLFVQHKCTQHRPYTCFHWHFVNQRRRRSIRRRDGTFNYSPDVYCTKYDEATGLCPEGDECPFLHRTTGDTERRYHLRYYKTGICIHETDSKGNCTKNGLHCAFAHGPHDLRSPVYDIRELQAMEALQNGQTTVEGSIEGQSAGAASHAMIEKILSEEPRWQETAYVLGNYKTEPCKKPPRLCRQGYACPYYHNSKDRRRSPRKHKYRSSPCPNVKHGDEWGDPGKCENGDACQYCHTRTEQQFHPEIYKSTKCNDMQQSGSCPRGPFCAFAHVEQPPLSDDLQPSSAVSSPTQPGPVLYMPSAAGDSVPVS
Setting: RNA with constant flanks, human-mouse chimeric sites, ends assumed
Oligonucleotide	bound/input enrichment
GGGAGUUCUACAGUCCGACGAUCACAGUUAUAUUGUUGAGUUUCAUUUUCAUAUAUUCUUGUAGUGUCUGCUUGCCUGUGACUUCUGGUAAAAUAAAAUAAGCCUUUGAAAAUAUUUUAGAUUUAACAUUAACAUUUUCUAAACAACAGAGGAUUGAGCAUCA	5.32 ratio
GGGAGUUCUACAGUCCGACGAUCGAAUCCUACUCAGGCGGUCCCACAACAACCAAGCUCACAGCAGCAGCAUCUUAGUCACAGUAGGGUAGUUUUGGGGCAAUAUUGCCAGGGUUUUAUUCACAUGCAGGUUUGGAAAAUGUACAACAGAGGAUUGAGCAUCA	1.92 ratio
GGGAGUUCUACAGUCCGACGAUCUACUGCUGCUUUCAACUUAAAUCACUGAGGCAUCUCUACUGUUCUGUGAGCAUCAGGACUGUAGCGCUGUGUCACCACAUGAGAGUUCAGAAGCAGCCUUUCUGUGGAGGGUGGGAAUGACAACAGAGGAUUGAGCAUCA	0.11 ratio
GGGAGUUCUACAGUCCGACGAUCCUGAGGAUACCACUGAAGAGACCUUAAAAGAAUCAUUUGAGGGCUCUGUUCGUGCAAGAAUAGUCACUGAUCGGGAAACUGGUUCUUUCCAAAGGGUUUGGUUUUGUGACUUUAAUAGUGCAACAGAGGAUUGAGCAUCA	0.363 ratio
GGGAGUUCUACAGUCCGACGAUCAAAGAACCUCUCUCUGAUGAAGAUGAGGAAGACAAUGAUGAUGUUGAACCUAUUACUGAAUUUCGAUUUGUGCCCAGUGAUAAAUCAGCAUUGGAGGCGAUGUUCACAGCAAUGUGUGAGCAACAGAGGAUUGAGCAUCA	0.272 ratio
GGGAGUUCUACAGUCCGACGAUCUUGAAAACUGAUUCAAGUAAGUUUGAGUAUCACAAUGUUAGCUUUCUAAUUCCAUAAAGAUAGUUUUUUUUUACAGUUUAUAAUCUGCAAUCCAUCAAGCGCCAUUUGUAAAGAGCAACUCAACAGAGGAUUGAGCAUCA	19.5 ratio
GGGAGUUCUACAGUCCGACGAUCGGGGAGAAACCUUACGAGUGUGUGCAGUGUGGGAAAUCCUACAGUCAAAGCUCAAAUCUCUUCAGACAUCAGAGACGACACAAUGCAGAAAAACUUUUGAAUGUUGUGAAGGUUUAAGAACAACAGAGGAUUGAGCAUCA	0.128 ratio
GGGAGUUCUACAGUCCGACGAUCGGGACUGAUUCAUCCCAAGGACAGGCCACCCCAUUUGAUGCCUGGACUGAUGACAGUAUGGAAGGGCCUAGUCAAAAUGUUGAAGCUGAGUCAAUUCAAGAUAAUGCGAGUAUGGAAGAGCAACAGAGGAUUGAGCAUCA	0.463 ratio
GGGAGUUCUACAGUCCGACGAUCAUCAAAUACUUUGGGGAUAUUAUUAGCGUGGGACAGAGACUGUUGCAAGGAGCUCGGAUCUUAGGGAUUCCAGUUAUCAUAACGGAACAAUACCCCAAAGGACUUGGGAGCACGGUUCAACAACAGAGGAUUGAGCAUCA	0.388 ratio
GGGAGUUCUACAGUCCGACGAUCAACUUCGUGCAUCGGUUUCCCUUUGUAGCUGUUUCAAUUGGCUUCCUUGUGAAUAAAAAGAUAGAAUUUGGAAUUGUGUACAGCUGUGUGGAAGAUAAGAUGUACACUGCCAGAAAAGGGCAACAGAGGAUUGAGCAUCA	2.44 ratio
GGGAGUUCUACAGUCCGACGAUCGAUGAUAAUCACACAAACAAGUCACUGUUACAUGACCAGCCUUGGGAUUCUUCUCCUGAUUAAUAUUCUCCCUGGAACCACUAGCCAAGGGGAAUCAAGACGACAAGAACCCGGGGACUUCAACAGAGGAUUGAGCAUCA	0.165 ratio

Sample 2 — method: RNA Bind-n-Seq; form: RNA; sample: in vitro; concentration: 365 nM; reference: no-protein control; reading: higher = stronger binding
Target: RNA binding protein fox-1 homolog 2, RRM domain, GST-SBP tag (RBFOX2, Homo sapiens, UniProt O43251-10, residues 100-194)
Setting: natural RNA segment, single round, ends assumed
Construct (chain): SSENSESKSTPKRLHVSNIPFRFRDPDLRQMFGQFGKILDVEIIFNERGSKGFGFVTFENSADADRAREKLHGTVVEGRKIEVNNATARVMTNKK
Oligonucleotide	RBNS enrichment (R)
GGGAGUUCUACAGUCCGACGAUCAGCAAGGCUUCUGUGUACUUGCCUGAAAACAAAGGAAGGUGCUGGUCAUUCCAUUUCUUUUGUUUGAAGCUAAAGAGAUGUGUAGCUCACAGGGGCUACCUUACCAGUAUUGGAAUUCUCGGGUGCCAA	0.462
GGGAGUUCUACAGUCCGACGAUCGCGCCAGCGGUGGAGGCUGAGUCGCAGGACACAUGCCGGCCAGUUAAUUCAUUCUCAGCCAAUGAAGGUUUGUCUAAGCUGCCUGGGUAUCCACGGGACAAAAACAGCAAUGGAAUUCUCGGGUGCCAA	0.288
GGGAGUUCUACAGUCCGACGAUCCUCACCCUGACAUAUGCCCACAUCCAUGCUGGGGCCUGGGUUCAGCCUGGCCUGCCCAGCCCUGGUCAUCCAGCUGUACUGGCCCCUGGGGGGCCCCUUUGGGAGCAGGCUGGAAUUCUCGGGUGCCAA	0.452
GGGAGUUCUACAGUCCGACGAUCAAAUAUUUGAAAGCACUUAAGCACUCCUCCUUGUGGAAAGAAUAUACCACCAUUUCAUCUGGCUAGUUCACCAUCACAACUGCAUUACCAAAAGGGGAUUUUUGAAAACGUGGAAUUCUCGGGUGCCAA	0.748
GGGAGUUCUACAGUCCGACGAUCUGUGCACCAAUUGUCAAAACCACUGAGUGCUGUGCUGCCUAUGUGAGAAGAAAGUUACUGACUUGUGACCUAUGCUUGGCCCUGUGCCUAGUCACCUGUCACCAGGGAUUUGGAAUUCUCGGGUGCCAA	0.511
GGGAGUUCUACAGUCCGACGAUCGAGGAGUUUGACAACUCCAGUGAGGACUAGGCUCCCUGUGCCUGGCAUCAGAGGGAAGGGAGGCUGGGGCUGCAGGGCAGUGAAACCCACGCAGCCUAGGCCAGAGCACUUGGAAUUCUCGGGUGCCAA	0.294
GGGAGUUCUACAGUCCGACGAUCAAUCUUACGUGCCCGUAAAGUUGGGAUGUUGAAUUGGCUCUUCUUUGUUCUGGCAGUGAGUCAAGUGUCCAGCAUUUUUUCAUAAGUGUUUUUUAAAAUUGUUCUCCAGCUGGAAUUCUCGGGUGCCAA	0.409
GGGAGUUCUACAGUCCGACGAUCCCAGUAGACUCACACUAUAUGCUUUUUUGGGUUUGCCCGUUCCUUCCCCCACCCCCCCAGUUUUUUCAGAUUUCUUUACCUUUUUUUAAUUAAACUGUUUUGGAAAAAUGUGGAAUUCUCGGGUGCCAA	1.19
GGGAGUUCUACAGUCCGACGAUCGGGAGACUCAGCCUUCCUCCUCAUCCUCCCUGACCCUGCUCCUAGCACCCUGGAGAGUGCACAUGCCCCUUGGUCCUGGCAGGGCGCCAAGUCUGGCACCAUGUUGGCCUUGGAAUUCUCGGGUGCCAA	0.547
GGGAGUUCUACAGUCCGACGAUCCUGCUUAGAAGCAUGAGAAGCAUGAGAAUGGUAAUGUGUGCUAAACCUAUGUUUAACCAAUCUUUGCACCAAAGGACUUUUUCACCAAUUUAUUUUGUUAUUCUUCCAAAUGGAAUUCUCGGGUGCCAA	10.7
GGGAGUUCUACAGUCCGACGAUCUCCCCAUGGUUUCCAGCUCAAUCCACCCCUGACCCAUCUGUCAGCUUUUUCCCAGGGAGCCGUUUCAGGGGUUCUGGGCAGUAGGCUGGGCCUGGCCUCAGAACCUGGUGUGGAAUUCUCGGGUGCCAA	0.32
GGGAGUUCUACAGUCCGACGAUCGGCAUGACUCUGCCAUGGUGUCACAGGCAUCUUGAUCAUGUCUUGACCAUAGAAUUGCUCUCUAGGAGCUGGGCAUGGUGACCUACGUCUGUAUUCUCAGCACUCAGGAGUGGAAUUCUCGGGUGCCAA	0.286

Sample 3 — method: aptamer microarray, sandwich; form: DNA with 2'F-ANA; sample: in vitro; concentration: 200 nM; together with: Cy3 exosite-II aptamer, 400 nM; reading: higher = stronger binding; oligonucleotide: GGTTGGTGTGGTTGG
Target: Prothrombin, mature alpha-thrombin (F2, Homo sapiens, UniProt P00734)
Setting: whole 15-mer aptamer, many near background
Modification	mean fluorescence intensity [a.u.]
2'F-ANA at 3 6 7 8 10	561
2'F-ANA at 1 2 5 6 9 11 12 15	86.6
2'F-ANA at 2 8 10 12 13 15	152
2'F-ANA at 2 3 5 7 8 9 10 12	83.4
2'F-ANA at 1 2 9 12 13	305
2'F-ANA at 1 2 3 4 7 12 14 15	80.6
2'F-ANA at 2 5 8 9 10 13	45.4
2'F-ANA at 1 2 3 4 6 7 8 10 11 12 13 15	62.3
2'F-ANA at 1 2 3 4 5 6 7 8 13	56.3
2'F-ANA at 1 2 3 6 7 8 10 12 13 15	99
2'F-ANA at 2 4 6 7 9 10 11 13	64.8
2'F-ANA at 2 3 6 7 8 9 12 13 15	834
2'F-ANA at 1 2 4 5 7 8 9 11 12 13 14	45.8
2'F-ANA at 7 8 10 11 14 15	148
2'F-ANA at 1 2 3 7 9 10 11 12 15	79.6
2'F-ANA at 1 7 8 12	499
2'F-ANA at 3 6 8 9 11 12	1160
2'F-ANA at 1 6 9 10 11 13 14	84.5
2'F-ANA at 7 8 9 10 11 12 15	206
2'F-ANA at 1 3 5 6 7 9 12 13 14	61.1
2'F-ANA at 1 2 4 7 8 12 13	295
2'F-ANA at 1 2 7 8 11 12 13	303
2'F-ANA at 3 4 5 6 7 9 11 13	73.8
2'F-ANA at 1 3 4 5 6 7 8 9 14 15	49.1
2'F-ANA at 5 6 12 13 14	112

Sample 4 — target: CCNB1, cyclin fold, Cln2 fusion (human); method: yeast growth competition, sequencing; sample: yeast; setting: weak parent motif; reference: not given; reading: higher = stronger binding
Parent: RBL1 docking peptide (human); GSAKRRLFGEDPP
Variant	normalised enrichment score
R6K	0.648
R5T	-0.115
P12V	0.512
G1H	0.0933
K4P	0.0497
P13S	0.407
P13L	1.58
A3F	1.64
R6E	0.757
L7C	1.09
L7K	1.23
R5V	0.232
G1T	1.18
F8T	-0.0283
L7T	-0.32
G1F	2.36
S2E	0.773
R6S	0.219
P12M	0.0928
